Measured values pooled from the literature.
Each line is one published result; not all experiments were run side by side. Values joined by “and” are separate records of one study, mostly repeats; a detail may differ. ± marks the error that the study gave.
UniProt Q01959, sequence (whole entry, unmodified, looked up): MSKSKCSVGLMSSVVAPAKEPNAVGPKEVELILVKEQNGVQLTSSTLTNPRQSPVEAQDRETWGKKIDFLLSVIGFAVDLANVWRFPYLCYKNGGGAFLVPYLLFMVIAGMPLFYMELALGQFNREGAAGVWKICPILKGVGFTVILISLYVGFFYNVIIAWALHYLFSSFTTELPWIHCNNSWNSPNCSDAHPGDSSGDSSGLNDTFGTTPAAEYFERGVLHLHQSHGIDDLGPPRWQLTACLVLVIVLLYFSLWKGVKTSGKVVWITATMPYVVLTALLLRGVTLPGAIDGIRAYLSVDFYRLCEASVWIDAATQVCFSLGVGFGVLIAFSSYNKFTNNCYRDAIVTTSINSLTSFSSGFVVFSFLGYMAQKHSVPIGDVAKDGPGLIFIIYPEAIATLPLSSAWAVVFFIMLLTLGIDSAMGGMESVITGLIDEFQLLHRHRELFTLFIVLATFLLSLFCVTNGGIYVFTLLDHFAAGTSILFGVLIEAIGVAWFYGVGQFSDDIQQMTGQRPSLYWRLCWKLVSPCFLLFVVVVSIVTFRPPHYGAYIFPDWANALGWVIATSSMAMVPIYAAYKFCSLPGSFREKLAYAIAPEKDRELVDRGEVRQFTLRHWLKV
UniProt P02708, sequence (whole entry, looked up): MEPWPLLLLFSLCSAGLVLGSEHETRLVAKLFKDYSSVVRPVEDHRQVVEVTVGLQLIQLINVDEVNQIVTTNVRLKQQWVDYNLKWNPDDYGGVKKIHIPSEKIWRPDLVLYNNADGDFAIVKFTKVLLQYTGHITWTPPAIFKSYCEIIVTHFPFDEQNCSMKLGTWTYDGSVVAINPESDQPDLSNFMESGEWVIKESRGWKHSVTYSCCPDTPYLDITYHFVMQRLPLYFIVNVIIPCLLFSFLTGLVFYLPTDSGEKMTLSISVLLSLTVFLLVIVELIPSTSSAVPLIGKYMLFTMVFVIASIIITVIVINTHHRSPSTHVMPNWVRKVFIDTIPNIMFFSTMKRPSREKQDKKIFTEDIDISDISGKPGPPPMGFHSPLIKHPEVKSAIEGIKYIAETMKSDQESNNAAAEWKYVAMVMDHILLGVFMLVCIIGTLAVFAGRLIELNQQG
UniProt P07949, sequence (whole entry, unmodified, looked up): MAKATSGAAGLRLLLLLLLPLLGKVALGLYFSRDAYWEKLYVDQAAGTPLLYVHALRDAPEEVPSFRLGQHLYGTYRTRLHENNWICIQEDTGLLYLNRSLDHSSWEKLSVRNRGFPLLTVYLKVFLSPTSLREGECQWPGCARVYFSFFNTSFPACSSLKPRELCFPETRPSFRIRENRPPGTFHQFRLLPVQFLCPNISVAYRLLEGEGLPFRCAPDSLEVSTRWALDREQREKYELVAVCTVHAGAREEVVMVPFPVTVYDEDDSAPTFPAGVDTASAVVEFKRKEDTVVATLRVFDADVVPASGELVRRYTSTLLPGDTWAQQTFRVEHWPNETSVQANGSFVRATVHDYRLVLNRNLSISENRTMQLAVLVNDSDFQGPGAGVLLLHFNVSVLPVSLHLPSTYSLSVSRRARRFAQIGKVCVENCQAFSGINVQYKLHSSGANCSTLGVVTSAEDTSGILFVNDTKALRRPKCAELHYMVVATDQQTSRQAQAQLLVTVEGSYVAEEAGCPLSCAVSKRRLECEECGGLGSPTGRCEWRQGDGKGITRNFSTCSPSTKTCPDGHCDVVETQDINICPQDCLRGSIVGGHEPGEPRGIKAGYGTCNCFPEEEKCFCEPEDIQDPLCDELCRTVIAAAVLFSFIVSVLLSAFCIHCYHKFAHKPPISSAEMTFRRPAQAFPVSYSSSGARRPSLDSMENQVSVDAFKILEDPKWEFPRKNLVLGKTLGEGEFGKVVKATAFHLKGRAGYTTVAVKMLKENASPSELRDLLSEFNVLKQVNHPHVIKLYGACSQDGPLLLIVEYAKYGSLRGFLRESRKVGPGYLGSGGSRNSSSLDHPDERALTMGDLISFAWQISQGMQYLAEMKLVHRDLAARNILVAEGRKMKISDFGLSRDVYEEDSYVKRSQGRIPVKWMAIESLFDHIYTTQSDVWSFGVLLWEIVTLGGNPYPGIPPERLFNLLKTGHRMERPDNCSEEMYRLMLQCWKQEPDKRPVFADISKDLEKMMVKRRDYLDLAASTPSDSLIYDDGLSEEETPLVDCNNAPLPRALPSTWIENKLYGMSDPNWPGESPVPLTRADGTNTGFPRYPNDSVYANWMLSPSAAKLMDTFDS
UniProt Q07001, sequence (whole entry, looked up): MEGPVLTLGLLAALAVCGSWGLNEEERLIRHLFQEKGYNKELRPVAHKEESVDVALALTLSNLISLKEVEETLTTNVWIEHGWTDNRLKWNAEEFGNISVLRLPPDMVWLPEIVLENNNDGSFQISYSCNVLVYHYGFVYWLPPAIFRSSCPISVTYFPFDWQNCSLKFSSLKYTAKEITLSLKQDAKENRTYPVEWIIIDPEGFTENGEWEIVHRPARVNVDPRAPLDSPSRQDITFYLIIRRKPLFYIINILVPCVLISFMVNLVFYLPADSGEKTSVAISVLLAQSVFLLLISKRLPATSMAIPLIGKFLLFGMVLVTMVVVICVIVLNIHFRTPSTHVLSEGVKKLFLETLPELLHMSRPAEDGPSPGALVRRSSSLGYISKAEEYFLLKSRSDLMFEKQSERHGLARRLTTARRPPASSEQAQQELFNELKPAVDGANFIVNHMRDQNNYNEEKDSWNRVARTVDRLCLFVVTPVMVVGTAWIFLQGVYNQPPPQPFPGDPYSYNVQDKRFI
UniProt P07510, sequence (whole entry, looked up): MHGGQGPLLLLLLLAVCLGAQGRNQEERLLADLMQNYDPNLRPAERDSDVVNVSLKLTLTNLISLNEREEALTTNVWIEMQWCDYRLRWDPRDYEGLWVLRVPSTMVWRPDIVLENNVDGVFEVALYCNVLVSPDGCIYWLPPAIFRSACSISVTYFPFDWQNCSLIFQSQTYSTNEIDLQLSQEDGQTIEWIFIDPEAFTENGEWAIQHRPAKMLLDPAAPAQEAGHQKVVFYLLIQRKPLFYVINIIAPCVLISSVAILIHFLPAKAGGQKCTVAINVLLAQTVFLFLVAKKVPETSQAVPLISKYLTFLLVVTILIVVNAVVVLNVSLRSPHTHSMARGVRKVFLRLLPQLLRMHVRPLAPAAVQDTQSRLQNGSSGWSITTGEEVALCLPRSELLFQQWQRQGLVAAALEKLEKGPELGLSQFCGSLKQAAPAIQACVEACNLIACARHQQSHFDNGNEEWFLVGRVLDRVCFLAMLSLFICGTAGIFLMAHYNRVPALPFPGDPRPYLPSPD

| Compound | target or system | test | system | setting | how to read | measurement | result |
| --- | --- | --- | --- | --- | --- | --- | --- |
| CC(C)(C)C(=O)OCOP(=O)(OCOC(=O)C(C)(C)C)C1CCCN(O)C1=O (centres unmarked) | MDA-MB-231 |  |  |  |  | TGI | 20 µM |
| Cc1cc(Oc2nc(N3CC[C@@H](c4ccncc4)C3)ncc2F)[nH]n1 | Mycobacterium tuberculosis | OD | H37Rv PurF CRISPRi knockdown | 0.5 µM, together with: anhydrotetracycline low |  | normalised growth | 1% and 3% and 0% |
| CC[C@H](C)[C@H](NC(=O)[C@H](CC(=O)O)NC(=O)[C@@H](NC(=O)[C@@H]1CCCN1C(=O)[C@@H](N)CCCNC(=N)N)[C@@H](C)O)C(=O)N[C@@H](CCCCN)C(=O)N[C@H]1CSSC[C@@H]2NC(=O)[C@H](CCCNC(=N)N)NC(=O)CNC(=O)[C@H](CC(N)=O)NC(=O)[C@H]([C@@H](C)O)NC(=O)[C@H](CCCCN)NC(=O)CNC(=O)[C@H](Cc3ccccc3)NC(=O)[C@H](CCCNC(=N)N)NC(=O)[C@H](CO)NC(=O)[C@H](CCCCNC(=O)OCc3cc(OC)c(OC)cc3[N+](=O)[O-])NC(=O)[C@@H]3CSSC[C@@H](C(=O)N[C@@H](Cc4ccccc4)C(=O)O)NC(=O)[C@H](CC(=O)O)NC(=O)[C@H](CSSC[C@H](NC(=O)[C@H](CCC(N)=O)NC(=O)[C@H](Cc4ccc(O)cc4)NC(=O)[C@H](CO)NC(=O)[C@H](CCC(=O)O)NC(=O)[C@H](CO)NC1=O)C(=O)N[C@@H](Cc1ccccc1)C(=O)N1CCC[C@H]1C(=O)N[C@@H](C(C)C)C(=O)N3)NC(=O)[C@H](Cc1ccccc1)NC(=O)CNC(=O)[C@H](CC(N)=O)NC(=O)[C@H](C(C)C)NC2=O | human iPS-derived cardiomyocytes |  |  | 200 nM, no illumination, 1000 ms cycle |  | APD90 | 279 ± 47.2 ms |
| CCc1nn(C)c2nc(-c3ccc(C(=O)O)cc3)nc(NCc3ccccc3)c12 | Cryptosporidium parvum |  | HCT-8 | EC50, 0 h | baseline: DMSO control | parasite number | 109% and 101% and 93.3% and 96.8% |
| CCc1nc2ccc(Cl)cn2c1C(=O)NC/C=C(\C)CC/C=C(\C)CCC=C(C)C | Mycolicibacterium smegmatis |  |  | 72 h |  | MIC | > 100 µM |
| Nc1ccccc1C(=O)OCC#CCOC(=O)c1ccccc1N | Nakaseomyces glabratus | microbial growth, broth dilution | MY1381 |  |  | MIC | > 128 mg/L |
| CC1(C)C(NC(=O)C(=NOC2(C(=O)O)CC2)c2csc(N)n2)C(=O)N1OS(=O)(=O)O (centres unmarked) | Shigella flexneri | agar dilution | ATCC 12022, susceptible |  |  | MIC | 0.125 mg/L |
| CCc1nnc(-c2c(OC)cc(-c3cnc4cc(-c5cnn(C)c5)ccn34)cc2OC)o1 |  | histomorphometry | male C57BL/6J mouse, tibia | oral gavage, 10 mg/kg once daily, 3 wk |  | osteoid volume/bone volume | 0.238 ± 0.0735% |
| CN1C(=O)C(C2C3=C(CCCC3=O)Oc3ccc(Br)cc32)C(=O)N(C)C1=O (centres unmarked) | 3T3-L1 pre-adipocytes | cell viability, MTT |  | 72 h |  | IC50 | > 100 mg/L |
| CC(O)CN.O=C(O)C(Cl)Cl | Amaranthus retroflexus | herbicidal activity |  | 15 mg/mL, 21 days, pre-emergence greenhouse |  | inhibition | 0% |
| O=C(NCc1cc(F)cc(F)c1)[C@@]1(O)CCN(c2ccc3[nH]ccc3c2)C1=O |  |  | sample A PDX mouse | dose not given, RTV endpoint 500% |  | median survival time | > 80 days |
| CCn1ccc(-c2cc([C@@H](C)NC(=O)c3cc(N4CC5CCC(C4)N5C)ccc3C)c3ccccc3n2)n1 | Vero E6 |  |  | 125 µM |  | viability | 1.14% and -0.142% and -0.997% |
| COc1ccccc1-c1n[nH]c2nc(N[C@H]3CC[C@H](NS(=O)(=O)CC(C)C)CC3)ncc12 |  | bead binding, competition bead pull-down, refers to: LINJ.24.1910 | Leishmania donovani extract | 10 µM | baseline: vehicle | relative abundance | 1.14 |
| CC[C@H](C)[C@@H]1NC(=O)[C@H](Cc2c[nH]cn2)NC(=O)[C@H](CC(N)=O)NC(=O)[C@H](CO)NC(=O)[C@H](CCC(N)=O)NC(=O)[C@@H](NC(=O)CN)CSSC[C@@H]2NC(=O)CNC(=O)[C@H](C)NC(=O)[C@H](CC(C)C)NC(=O)[C@@H]3CSSC[C@@H](C(=O)NCC(=O)O)NC(=O)[C@H](Cc4ccccc4)NC(=O)CNC(=O)[C@H](CC(N)=O)NC(=O)[C@@H]4CCCN4C(=O)CNC(=O)[C@H](CSSC[C@H](NC(=O)[C@H](CCCNC(=N)N)NC(=O)[C@H](CC(N)=O)NC(=O)[C@H](Cc4c[nH]cn4)NC(=O)[C@H](CCCCN)NC(=O)[C@H](CC(C)C)NC1=O)C(=O)N[C@@H](CCCCN)C(=O)N[C@@H](CCC(N)=O)C(=O)N[C@@H](CC(=O)O)C(=O)N[C@@H](CO)C(=O)N[C@@H](CC(=O)O)C(=O)N3)NC(=O)[C@H](C(C)C)NC2=O | HEK293-TB | Wnt signaling |  | together with: Wnt3a transfection |  | IC50 | > 100 µM |
| CCc1nc2cc(Br)ccn2c1C(=O)NCc1ccc2oc(-c3ccc(Cl)cc3)nc2c1 | Mycolicibacterium smegmatis |  |  | 72 h |  | MIC | > 25 µM |
| CS(C)(=O)=Nc1ccc(-c2ccc(-c3nc4cc(O[C@@H]5CO[C@H]6[C@@H]5OC[C@H]6O)[nH]c4cc3F)cc2)cc1 | CHRNA1/CHRNG/CHRND (Homo sapiens, UniProt P02708+P07510+Q07001) | antagonist radioligand binding |  | 10 µM |  | inhibition | -18% |
| Cc1ccc(OCCN(C)C)cc1C(=O)N[C@H](C)c1cc(-c2cnn(C3CNC3)c2)nc2ccccc12 | Vero E6 |  |  | 125 µM |  | viability | 99.6% and 101% |
| Cc1cc(C(=O)Nc2nc3cccc(C)c3n2[C@H]2CCCCN(C(=O)/C=C/CN(C)C)C2)ccn1 | Trypanosoma brucei | propidium iodide flow cytometry | bloodstream form | concentration not given, 16 h |  | cells in sub-G0 phase | 2.17% |
| Cc1nc2ccc(OC(F)(F)F)cn2c1C(=O)NCc1ccc2oc(-c3ccc(Cl)cc3)nc2c1 | Mycolicibacterium smegmatis |  |  |  |  | MIC90 | > 100 µM |
| CSCC[C@H](NC(=O)[C@@H]1CSSC[C@H](NC(=O)[C@H](CCCCN)NC(=O)[C@H](Cc2ccc(O)cc2)NC(=O)CNC(=O)[C@@H](N)CC(C(=O)O)C(=O)O)C(=O)N[C@@H](C(C)C)C(=O)N[C@H](Cc2c[nH]c3ccccc23)C(=O)N[C@@H](CCCCN)C(=O)N[C@@H]([C@@H](C)O)C(=O)N1)C(=O)N1C[C@H](O)C[C@H]1C(=O)N[C@@H](C)C(=O)O |  | calcium imaging | zebrafish larvae CNS neurons | 5 µM | baseline: cells | responding neurons | 14.1 ± 2.64% |
| NC[C@]1(CC(=O)O)CC[C@@H]([18F])CC1 |  | PET | rhesus monkey, whole brain | dose not given, together with: gabapentin pre-injection | baseline: baseline | K1 change | 16% |
| Cc1nc2cc(Br)ccn2c1C(=O)NCc1ccc2oc(-c3ccc(OC(F)(F)F)cc3)nc2c1 | Mycolicibacterium smegmatis |  |  | 72 h |  | MIC | > 25 µM |
| COc1ccccc1-c1n[nH]c2nc(NC3CCN(C(=O)Cc4ccc(F)cc4F)CC3)ncc12 |  | bead binding, competition bead pull-down, refers to: LINJ.05.0500 | Leishmania donovani axenic amastigote extract | 10 µM | baseline: vehicle | relative abundance | 1.05 |
| CC(C)C[C@@H]1NC(=O)[C@@H](Cc2c[nH]c3ccccc23)NC(=O)[C@H](CCCNC(=N)N)NC(=O)[C@@H](CCC(=O)O)NC(=O)[C@H](CCC(N)=O)NC(=O)[C@@H](CCC(=O)O)NC(=O)[C@H](CCCNC(=N)N)NC(=O)[C@@H](Cc2c[nH]c3ccccc23)NC1=O |  |  | male LDLr-/- mice, Western diet | dose not given, 2 weeks | baseline: vehicle | plasma total cholesterol | decreased |
| O=C(O)c1ccc(-c2nc(-c3ccccc3Cl)c3sccn23)cc1 |  |  | CD34+ hematopoietic stem cells, human | 0.1 mM |  | CFU-GEMM colony count | 34 and 43 |
| CCC[C@@H](C(=O)c1ccccc1)N1CCCC1 | SLC6A3 (Homo sapiens, UniProt Q01959) | dopamine uptake, inhibitor | HEK293 transiently transfected | DAT S149A mutant, together with: [3H]dopamine |  | Ki | 0.012 µM |
| O=C1NC2(CC2)COc2ncc(F)cc2[C@H]2COCCN2c2ccn3ncc1c3n2 |  |  | Sprague-Dawley rat, female, ovaries | oral, 10 mg/kg/day, 4 weeks, end of treatment |  | organ-to-body weight ratio | 0.036 ± 0.005% |
| O=C1NC(=O)c2c1c1cc(F)c[n+]3c1c1c2c2cc(O)ccc2[n]1[Ru-4]312([N]=C=S)[S+]3CC[S+]1CC[S+]2CC3 (centres unmarked) | RET (Homo sapiens, UniProt P07949, V804L) | enzyme activity |  | 100 nM, human enzyme, together with: 10 µM ATP | baseline: untreated | remaining activity | 11% |
| CC(C)CC(C(=O)N1CC2(CC1C#N)C(=O)Nc1ccccc12)N(C)C(=O)c1cc2c(F)cc(F)c(F)c2[nH]1 (centres unmarked) | Human coronavirus 229E | cytopathic effect | MRC5 | 41.13 nM |  | inhibition | 100% |

Excerpt of the above:
| Compound | target or system | test | system | setting | how to read | measurement | result |
| --- | --- | --- | --- | --- | --- | --- | --- |
| COc1ccccc1-c1n[nH]c2nc(NC3CCN(C(=O)Cc4ccc(F)cc4F)CC3)ncc12 |  | bead binding, competition bead pull-down, refers to: LINJ.05.0500 | Leishmania donovani axenic amastigote extract | 10 µM | baseline: vehicle | relative abundance | 1.05 |
| CC(C)C[C@@H]1NC(=O)[C@@H](Cc2c[nH]c3ccccc23)NC(=O)[C@H](CCCNC(=N)N)NC(=O)[C@@H](CCC(=O)O)NC(=O)[C@H](CCC(N)=O)NC(=O)[C@@H](CCC(=O)O)NC(=O)[C@H](CCCNC(=N)N)NC(=O)[C@@H](Cc2c[nH]c3ccccc23)NC1=O |  |  | male LDLr-/- mice, Western diet | dose not given, 2 weeks | baseline: vehicle | plasma total cholesterol | decreased |
| O=C(O)c1ccc(-c2nc(-c3ccccc3Cl)c3sccn23)cc1 |  |  | CD34+ hematopoietic stem cells, human | 0.1 mM |  | CFU-GEMM colony count | 34 and 43 |
